Experimental data collected from several papers.
Numbered parts are unrelated; each lists some results of a single study. Positions count from the first letter of the parent shown.

Series 1 — technique: DHFR PCA, deep sequencing; matrix: yeast; added: (+)-ABA 1.4 µM; baseline: wild-type fitted maximum; reading: higher = stronger binding
Target: ABI1, truncated, D143A, DHFR fusion (Arabidopsis thaliana)
Notes: methotrexate growth selection, single substitutions
Parent: PYL1, truncated, DHFR fusion (Arabidopsis thaliana); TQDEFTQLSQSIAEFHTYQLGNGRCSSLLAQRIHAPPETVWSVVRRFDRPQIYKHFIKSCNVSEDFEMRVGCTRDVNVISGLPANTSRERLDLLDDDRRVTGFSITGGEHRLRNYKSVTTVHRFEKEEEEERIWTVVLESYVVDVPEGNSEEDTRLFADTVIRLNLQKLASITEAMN; partner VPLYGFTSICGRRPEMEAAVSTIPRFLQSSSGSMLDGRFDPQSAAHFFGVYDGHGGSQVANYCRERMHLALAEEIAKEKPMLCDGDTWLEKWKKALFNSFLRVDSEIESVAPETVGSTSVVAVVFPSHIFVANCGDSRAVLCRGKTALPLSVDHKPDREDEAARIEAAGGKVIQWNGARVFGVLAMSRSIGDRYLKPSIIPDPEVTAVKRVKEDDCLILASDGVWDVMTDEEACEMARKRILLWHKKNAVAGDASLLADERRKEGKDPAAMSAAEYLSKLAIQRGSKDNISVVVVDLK
Variant	relative binding score
V137Q	-1.93%
E89A	0.98%
H34W	22.3%
D96N	19.9%
V136A	8.37%
E130R	56.3%
C60V	53%
L166R	10.7%
E152H	32.8%
T6P	72.6%
F124A	39.8%
S140P	11.4%
Q167Y	-5.52%
R69Q	58.2%
E147I	34.9%
T119I	4.76%
E152Y	25.4%
E64H	58.3%
D3H	42.4%
R46E	0.655%
T173S	46.1%
H122L	5.97%
A158E	-4.87%

Series 2 — technique: RNA Bind-n-Seq; form: RNA; matrix: in vitro; tested at: not given; baseline: input RNA pool; reading: higher = stronger binding
Target: RING finger protein unkempt homolog, zinc fingers 1-6, GST-SBP tag (UNK, Homo sapiens, UniProt Q9C0B0, residues 30-357)
UniProt Q9C0B0, sequence (30-357, looked up): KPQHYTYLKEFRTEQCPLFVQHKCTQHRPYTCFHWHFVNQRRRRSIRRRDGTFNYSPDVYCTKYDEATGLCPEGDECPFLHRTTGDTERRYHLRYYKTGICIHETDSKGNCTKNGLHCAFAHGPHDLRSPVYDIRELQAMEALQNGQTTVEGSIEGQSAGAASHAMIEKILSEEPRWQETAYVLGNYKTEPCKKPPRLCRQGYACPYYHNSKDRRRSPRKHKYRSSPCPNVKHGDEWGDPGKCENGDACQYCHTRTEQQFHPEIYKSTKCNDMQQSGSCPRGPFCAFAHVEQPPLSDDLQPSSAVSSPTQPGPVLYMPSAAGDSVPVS
Notes: RNA with constant flanks, human and mouse sites, ends assumed
Constant ends, left off below: GGGAGUUCUACAGUCCGACGAUC … CAACAGAGGAUUGAGCAUCA
Strand	bound/input enrichment [ratio]
GUCAAUCAUUUUGACAAGUCUCCUGAAAGGAACAGCUAGCAGGAACUGAAACCUUUUUCCAUUUGGUCUCGUGGCAAAGGCAGAGAUUGCUCCAGCAGCUCCACACAAAAUGAUGUGCUC	0.23
UGCGUGUGAACUGAACAGACGGAGAAGAUGUGCUAGGGAGAAUCUGCCUCCACAGUCACCCAUUUCAUUGCUCGCUGCGAAAGAGACGUGAGACUGACAUAUGCCAUUAUCUCUUUUCCA	0.127
UAUACCCCUCCUCUCCAGUCACCAAUUACAGAUGGCGAUCCUUUACUGGGGCAGUCACCUUGGAGAAGUAAAGUUUCUGGCUCUGACACGGAGACGUUAGGAGGCUUUCCAGUGGAAUUC	0.239
UGAAGAUCUGUACCUGUGCACAGUGAGCUUCAAAACAAAACACAAUUGAGCUUACGUUUGUUAGCAGGCGUAGAGUAUUCAUUACGUAAUGAAGUACUUAAGCAGCUACAGGGAAGUAUU	0.105
UUUUAACAAAUGUUUUCAUUUACAGGAAAUUGCAAAGAAAAUUCUCAAGUGAUAGUCUUUUUUUUUAAGUGUUUCGUAAGACAAAAAUUGAAUAAUGUUUUUUGAAGUUCUGGCAAGAUU	0.458
CAUCCAUUAUCUAUCUCCAUUUUCCAUUAUGGUACCUCUCAGAAGAGUGAGAGAGAGCUAUUAGAGAUUGUGAAGAAGAAUUUCGAUCUCCGCCCUGGGGUCAUUGUCAGGGAUCUGGAU	0.145
AGACAUGUCUGAGGACAUGCAACAGGAUGCCGUUGACUGCGCCACGCAGGCCAUGGAGAAGUACAAUAUAGAGAAGGACAUUGCUGCCUAUAUCAAGAAGGAAUUUGACAAGAAAUAUAA	0.49
UGAUUUUUCCUUUCGCGAAUCCGUAUCUGCAGAAUGGGCCACUGUAGGGGUUGGGGUUUAUUUUGUUUUGUUUUUUUUUUUCUUGAGUUCACUUUGGAUCCUUAUUUUGUAUGACUUCUG	2.02
UUCUAGCAGAGGCAAGAAUACAUAUUCAUAUACGCUUACUUAUGAAUUACCAUUUUAACAUUUAGAUAACAUGAAAUAUGGCCCUCUUGAAUUCUUGCUUUUAAGUUCCUUUUGAUAUGU	1.88
AAGUGGUUGCGGGAAAUAUUGAUCUGCAGGAAUAAAUUUCUUCUUAAAAAUAAGCAGGCAGAUAGAAGUUCCUGUCACUUUCUCCUUUUUUACGGGGUAGGAUGUGAUAUUCCUUCUAGU	0.289
AUAUAGCUAGCUAGAUGUCCACCCAUACUCAUCCAUGUGUGUUUAAAUAUUUGGGGGAUAUAUCAGUCCAUAUGGAAGAGACGGUUCAUGGAUGACCUAGGAAUAGCCAUCAGACUAUAA	0.754

Series 3 — target: UBE2L6 UBC core domain (UniProt O14933); technique: yeast two-hybrid; matrix: yeast; notes: mostly zero background; baseline: not given; reading: higher = stronger interaction
B1: ARIH2 RING domain (UniProt O95376); chain HVPTSHPPHHCAVCMQFVRKENLLSLACQHQFCRSCWEQHCSVLVKDGVGVGVSCMAQDCPLRTPEDFVF
B2: ZNRF4 RING domain (UniProt Q8WWF5); chain VRTFTWHNDLCAICLDEYEEGDQLKILPCSHTYHCKCIDPWFSQAPRRSCPVCKQSVAATEDSF
B3: RNF6 RING domain (UniProt Q9Y252); chain NSIDSELGKICSVCISDYVTGNKLRQLPCMHEFHIHCIDRWLSENCTCPICRQPVLGSNIAN
B4: NFX1 RING domain (UniProt Q12986); chain IEQLTTEKYECMVCCELVRVTAPVWSCQSCYHVFHLNCIKKWARSPASQADGQSGWRCPACQNVSAHVPNTY
B5: RNF186 RING domain (UniProt Q9NXI6); chain HSGSTECDLECLVCREPYSCPRLPKLLACQHAFCAICLKLLLCVQDNTWSITCPLCRKVTAVPGGLI
B6: TRIM41 RING domain (UniProt Q8WV44); chain PVQTLQEEAVCAICLDYFTDPVSIGCGHNFCRVCVTQLWGGEDEEDRDELDREEEEEDGEEE
B7: RNF182 RING domain (UniProt Q8N6D2); chain AESQASDELECKICYNRYNLKQRKPKVLECCHRVCAKCLYKIIDFGDSPQGVIVCPFCRFETCLPDDEV
B8: MID2 RING domain (UniProt Q9UJV3); chain KMETLESELTCPICLELFEDPLLLPCAHSLCFSCAHRILVSSCSSGESIEPITAFQCPTCRYVISLNHRGL
B9: ZMYND11 RING domain (UniProt Q15326); chain DEIDWETENHDWYCFECHLPGEVLICDLCFRVYHSKCLSDEFRLRDSSSPWQCPVCRSIKKKNTNKQEM
Construct (chain): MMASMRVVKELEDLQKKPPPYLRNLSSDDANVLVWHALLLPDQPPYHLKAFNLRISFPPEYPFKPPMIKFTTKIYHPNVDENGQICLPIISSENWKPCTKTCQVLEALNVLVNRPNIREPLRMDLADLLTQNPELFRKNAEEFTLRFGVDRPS
Sequence	lacZ reporter activity
B1 (ARIH2 RING domain)	0
LEALSSDFLACKICLEQLRAPKTLPCLHTYCQDCLAQLADGGRVRCPECRETVPVPPEGV (TRIM56 RING domain (UniProt Q9BRZ2))	0
B2 (ZNRF4 RING domain)	0
FDPPLESKYECPICLMALREAVQTPCGHRFCKACIIKSIRDAGHKCPVDNEILLENQLFP (TRAF6 RING domain (UniProt Q9Y4K3))	0
FAEQPSVKLCCQLCCSVFKDPVITTCGHTFCRRCALKSEKCPVDNVKLTVVVNNI (TRAF7 RING domain (UniProt Q6Q0C0))	0
B3 (RNF6 RING domain)	0
ASPKIFQKTKCSICNSALELPSVHFLCGHSFHQHCFESYSESDADCPTCLPENRKVMDMI (VPS11 RING domain (UniProt Q9H270))	0
B4 (NFX1 RING domain)	0
EIKEYKARLTCPCCNTRKKDAVLTKCFHVFCFECVRGRYEARQRKCPKCNAAFGAHDFHR (RNF40 RING domain (UniProt O75150))	0
B5 (RNF186 RING domain)	0
B6 (TRIM41 RING domain)	0
B7 (RNF182 RING domain)	0
B8 (MID2 RING domain)	0
B9 (ZMYND11 RING domain)	0

Series 4 — target: JDP2, bZIP domain (human); technique: DHFR protein complementation; matrix: yeast; baseline: wild-type JUN-FOS pair; reading: higher = stronger binding
Notes: single substitutions, most at no-binding floor
Parent: JUN, bZIP domain (human); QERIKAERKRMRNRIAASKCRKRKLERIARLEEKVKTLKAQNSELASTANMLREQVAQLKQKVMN; partner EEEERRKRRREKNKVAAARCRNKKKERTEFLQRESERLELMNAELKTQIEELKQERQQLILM
Variant	binding fitness
A40Q	0.403 natural log
A40Y	0.194 natural log
E44G	0.239 natural log
A57Q	0.28 natural log
A46R	0.255 natural log
Q41E	0.32 natural log
S47A	0.282 natural log
L31N	0.097 natural log
R30W	0.286 natural log
E44N	0.211 natural log

Series 5 — target: CCNA2, cyclin fold, Cln2 fusion (human); technique: yeast growth competition, sequencing; matrix: yeast; notes: strong parent motif; baseline: not given; reading: higher = stronger binding
Parent: ORC1 docking peptide (human); PRARKRLELGNLG; partner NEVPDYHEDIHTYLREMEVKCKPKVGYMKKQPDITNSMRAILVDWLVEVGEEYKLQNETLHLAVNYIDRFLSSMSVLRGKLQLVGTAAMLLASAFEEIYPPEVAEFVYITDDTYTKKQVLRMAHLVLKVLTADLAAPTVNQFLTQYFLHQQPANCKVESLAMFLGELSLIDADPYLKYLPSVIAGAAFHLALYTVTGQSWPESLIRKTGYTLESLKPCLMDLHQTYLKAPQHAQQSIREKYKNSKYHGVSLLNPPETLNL
Variant	normalised enrichment score
PWARKRLELGNLG [R2W]	3.28
PRYRKRLELGNLG [A3Y]	2.34
PRARKRLETGNLG [L9T]	1.03
PRARKRLELGNPG [L12P]	5.6
PRARKVLELGNLG [R6V]	1.45
PRARKMLELGNLG [R6M]	2.45
PRARKRLEWGNLG [L9W]	5.6
PRARQRLELGNLG [K5Q]	2.13
PRARKRLELGCLG [N11C]	5.35
PRARKRLELGNTG [L12T]	5.43
PRARKQLELGNLG [R6Q]	2.54
PRARKRLEHGNLG [L9H]	1.27
PRARKRLELGHLG [N11H]	5.48
PRARKDLELGNLG [R6D]	0.712
PRARKRLEGGNLG [L9G]	1.37
PRARKRLEMGNLG [L9M]	6.06

Excerpt of the above (series 4):
Variant	binding fitness
A40Q	0.403 natural log
A40Y	0.194 natural log
E44G	0.239 natural log
A57Q	0.28 natural log
A46R	0.255 natural log
Q41E	0.32 natural log
S47A	0.282 natural log
L31N	0.097 natural log
R30W	0.286 natural log
E44N	0.211 natural log
